Assay results pooled from the literature.
Parts stem from different laboratories: compare values within a part only. ± gives the spread as reported.
Sequence of UniProt P34913 (whole entry, looked up): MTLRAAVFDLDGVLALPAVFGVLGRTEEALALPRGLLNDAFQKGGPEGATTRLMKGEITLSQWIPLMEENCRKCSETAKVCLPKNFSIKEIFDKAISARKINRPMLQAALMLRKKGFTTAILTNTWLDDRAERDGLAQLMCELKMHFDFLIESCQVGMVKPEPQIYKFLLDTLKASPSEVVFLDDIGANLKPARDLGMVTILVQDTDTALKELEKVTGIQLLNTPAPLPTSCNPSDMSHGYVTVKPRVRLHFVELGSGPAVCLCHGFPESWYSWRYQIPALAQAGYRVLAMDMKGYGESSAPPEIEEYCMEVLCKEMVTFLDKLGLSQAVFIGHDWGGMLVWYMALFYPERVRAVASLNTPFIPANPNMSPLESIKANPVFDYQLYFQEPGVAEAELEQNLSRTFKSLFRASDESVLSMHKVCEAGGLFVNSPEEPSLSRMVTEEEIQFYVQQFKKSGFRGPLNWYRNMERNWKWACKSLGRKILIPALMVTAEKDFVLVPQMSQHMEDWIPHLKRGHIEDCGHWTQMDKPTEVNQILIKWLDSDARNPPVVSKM

Study 1
SMILES: Cc1cc(OCc2nnc(SC3CCCC3)n2-c2cccnc2)ccc1-c1ccc(S(C)(=O)=O)cc1
cell line | CC50
OVCAR-8 | > 100 µM
DU-145 | > 100 µM
SK-MEL-28 | 7.18 µM

Mixed results
Compound | tested on | assay | test system | setting | quantity | value
N#Cc1ccc(-c2csc(CNC(=O)C34CC(CN(C(=O)COCCF)C3)C4)n2)cc1 |  |  | Sprague Dawley rats male, plasma | oral, 3 mg/kg | unbound AUC | 2.1 µM·h
CC[C@@H]1C(=O)N(C)c2cnc(Nc3ccc(C(=O)NC4CCN(C)CC4)cc3OC)nc2N1C1CCCC1 | Bromodomain testis-specific protein, BD2 (BRDT, Homo sapiens, UniProt Q58F21) | thermal stabilisation, thermal shift |  | 10 µM | ΔTm | 2.08 ± 0.1 °C
Cc1ccc(S(=O)(=O)Nc2c(N3CCC(NC(=O)Nc4ccc(C(F)(F)F)c(F)c4)CC3)c(=O)c2=O)cc1 | EPHX2 (Homo sapiens, UniProt P34913) |  |  |  | IC50 | 0.0178 ± 0.0011 µM

A few entries again (mixed results):
Compound | tested on | assay | test system | setting | quantity | value
N#Cc1ccc(-c2csc(CNC(=O)C34CC(CN(C(=O)COCCF)C3)C4)n2)cc1 |  |  | Sprague Dawley rats male, plasma | oral, 3 mg/kg | unbound AUC | 2.1 µM·h
